Published values collected from several papers.
A part holds a random share of what one study measured. Positions count from the first letter of the parent shown.

Sample 1
Target: Histone acetyltransferase KAT6A, winged helix 1, GST fusion (KAT6A, Homo sapiens, UniProt Q92794, residues 1-85)
Technique: protein binding microarray
Molecule type: double-stranded DNA, one strand shown
Sample: in vitro
Tested at: not given
Notes: 8-mer, flanks averaged, mean of 2 arrays, mostly near background
Relative to: not given
Reading: higher = stronger binding
Construct (chain): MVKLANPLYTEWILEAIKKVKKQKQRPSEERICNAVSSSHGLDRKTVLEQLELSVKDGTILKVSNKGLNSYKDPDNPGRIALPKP
The E-score of `ATGTCTAC` is reported as -0.0132.
For `AGGTGGGG`, the E-score was -0.263.
`CATCCCGA` has an E-score of 0.0835.
With `CCAGGATA` the E-score was -0.116.
For `CAGCTGAG`, the E-score was -0.191.
`TCCGTCAA` has an E-score of 0.117.
`ACACGTTA` gave an E-score of -0.223.
`CACGTGGG` has an E-score of -0.228.
The E-score of `TATCTGCA` is reported as -0.214.
`TCACTTCA` gave an E-score of -0.0671.
With `ACACTATA` the E-score was -0.0402.
`AAATGGAG` has an E-score of -0.0958.
For `GACTTTCA`, the E-score was -0.0345.
For `CTAAAGGC`, the E-score was -0.0541.
With `CCCGAACA` the E-score was -0.0694.
For `ATCCTCAC`, the E-score was -0.174.
With `ACTTGTGG` the E-score was -0.171.
With `TCCAGGAA` the E-score was -0.0954.
For `ATTATAAC`, the E-score was 0.0901.
With `ACAGCACT` the E-score was -0.109.
`CCGAGTTA` gave an E-score of 0.00777.
The E-score of `ACCACCCC` is reported as -0.0916.
`CACTCATC` gave an E-score of -0.178.
The E-score of `CCCACCGG` is reported as 0.276.
With `AGAATATG` the E-score was -0.249.

Sample 2
Target: Sal-like protein 4, full length isoform A (SALL4, Homo sapiens, UniProt Q9UJQ4, residues 1-1053)
Chain of UniProt Q9UJQ4 (whole entry, looked up): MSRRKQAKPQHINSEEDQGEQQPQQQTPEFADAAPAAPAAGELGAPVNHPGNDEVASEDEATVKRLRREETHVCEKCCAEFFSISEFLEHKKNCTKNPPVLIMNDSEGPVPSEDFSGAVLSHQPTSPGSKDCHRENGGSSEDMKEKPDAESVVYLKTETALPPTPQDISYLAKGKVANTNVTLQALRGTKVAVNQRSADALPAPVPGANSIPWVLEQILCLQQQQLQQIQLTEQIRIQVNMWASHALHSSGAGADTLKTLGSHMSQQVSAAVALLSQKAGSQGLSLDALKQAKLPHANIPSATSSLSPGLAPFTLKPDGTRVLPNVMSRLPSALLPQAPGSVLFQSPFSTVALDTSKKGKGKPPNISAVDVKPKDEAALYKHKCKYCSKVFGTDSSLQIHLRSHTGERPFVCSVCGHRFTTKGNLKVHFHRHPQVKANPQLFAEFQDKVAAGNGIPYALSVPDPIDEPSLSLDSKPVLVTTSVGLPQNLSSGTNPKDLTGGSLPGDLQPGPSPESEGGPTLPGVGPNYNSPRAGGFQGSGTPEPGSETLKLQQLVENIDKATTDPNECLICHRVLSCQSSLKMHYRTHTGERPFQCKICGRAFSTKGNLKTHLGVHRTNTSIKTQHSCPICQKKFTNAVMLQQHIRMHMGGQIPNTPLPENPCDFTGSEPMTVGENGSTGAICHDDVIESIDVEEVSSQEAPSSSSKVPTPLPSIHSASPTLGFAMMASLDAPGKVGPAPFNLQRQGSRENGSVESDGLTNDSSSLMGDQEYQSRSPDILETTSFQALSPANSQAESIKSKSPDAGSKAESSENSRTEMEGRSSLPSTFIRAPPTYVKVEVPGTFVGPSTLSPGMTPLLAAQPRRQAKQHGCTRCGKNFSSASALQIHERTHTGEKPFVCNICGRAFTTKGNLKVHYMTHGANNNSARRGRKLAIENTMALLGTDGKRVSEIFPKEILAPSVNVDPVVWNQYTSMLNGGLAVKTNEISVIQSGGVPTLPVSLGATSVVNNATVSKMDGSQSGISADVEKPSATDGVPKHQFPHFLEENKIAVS
Technique: universal PBM
Molecule type: double-stranded DNA, one strand shown
Sample: in vitro
Tested at: 600 nM
Notes: 8-mer, flanks averaged, mean of replicates
Reading: higher = stronger binding
`CCCTCGAG` has an E-score of -0.198.
For `GGGTAGGA`, the E-score was -0.109.
For `ACTTAACA`, the E-score was 0.0554.
The E-score of `AGGCGCCA` is reported as -0.188.
`CTAAGAGA` has an E-score of -0.0123.
With `GAATCCGA` the E-score was -0.0291.
With `AGTTGGTC` the E-score was -0.0697.
`ATTTAAGG` has an E-score of 0.0268.
`AATTGAGC` has an E-score of 0.0885.
With `CGATCATC` the E-score was 0.0828.
`CTCGGTAA` has an E-score of -0.024.
The E-score of `GATCTACC` is reported as -0.155.
The E-score of `CGGCTCCC` is reported as -0.402.
The E-score of `CCGTCGTC` is reported as -0.348.
The E-score of `CTACGCAC` is reported as -0.105.
For `ACGCGCTA`, the E-score was 0.0089.
`ATCTAGTC` has an E-score of 0.0151.
`ACTCAGGA` gave an E-score of -0.0929.
For `AGATAAGC`, the E-score was 0.138.
The E-score of `ACATGTCT` is reported as 0.166.
`GCGCACCC` gave an E-score of -0.315.
`AACGAGGA` has an E-score of 0.0003.
`CATTGAGG` gave an E-score of 0.0577.

Sample 3
Target: ABI1, truncated, D143A, DHFR fusion (Arabidopsis thaliana)
Technique: DHFR PCA, deep sequencing
Sample: yeast
Notes: methotrexate growth selection, single substitutions
Added: (+)-ABA 0.39 µM
Relative to: wild-type fitted maximum
Reading: higher = stronger binding
Parent: PYL1, truncated, DHFR fusion (Arabidopsis thaliana); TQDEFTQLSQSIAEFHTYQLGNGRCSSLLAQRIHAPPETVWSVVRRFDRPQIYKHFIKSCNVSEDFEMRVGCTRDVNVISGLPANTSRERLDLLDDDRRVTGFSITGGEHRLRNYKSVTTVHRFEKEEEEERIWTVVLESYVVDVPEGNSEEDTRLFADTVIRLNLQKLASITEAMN; partner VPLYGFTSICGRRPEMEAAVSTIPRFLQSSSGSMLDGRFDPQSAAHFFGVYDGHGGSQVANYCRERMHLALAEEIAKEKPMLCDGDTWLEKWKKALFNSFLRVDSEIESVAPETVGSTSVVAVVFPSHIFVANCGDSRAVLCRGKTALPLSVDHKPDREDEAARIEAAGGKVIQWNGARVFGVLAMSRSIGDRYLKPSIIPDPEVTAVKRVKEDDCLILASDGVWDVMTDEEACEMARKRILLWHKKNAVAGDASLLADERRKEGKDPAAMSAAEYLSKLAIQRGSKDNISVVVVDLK
`L29N` — result for “relative binding score”: 13.2%.
`E129K` — result for “relative binding score”: 38.1%.
`T120C`: “relative binding score” -4.82%.
For `S80G`, “relative binding score” read 3.49%.
`I133R`: “relative binding score” 24%.
Under “relative binding score”, `R113S` is recorded as 30.5%.
Under “relative binding score”, `L164R` is recorded as 37.5%.
`G148S`: “relative binding score” -9.54%.
Under “relative binding score”, `S87M` is recorded as 32%.
Under “relative binding score”, `E109T` is recorded as 18.8%.
`S117L` — result for “relative binding score”: -2.07%.
For `R163L`, “relative binding score” read 1.51%.

Sample 4
Target: RING finger protein unkempt homolog, zinc fingers 1-6, GST-SBP tag (UNK, Homo sapiens, UniProt Q9C0B0, residues 30-357)
Chain of UniProt Q9C0B0 (30-357, looked up): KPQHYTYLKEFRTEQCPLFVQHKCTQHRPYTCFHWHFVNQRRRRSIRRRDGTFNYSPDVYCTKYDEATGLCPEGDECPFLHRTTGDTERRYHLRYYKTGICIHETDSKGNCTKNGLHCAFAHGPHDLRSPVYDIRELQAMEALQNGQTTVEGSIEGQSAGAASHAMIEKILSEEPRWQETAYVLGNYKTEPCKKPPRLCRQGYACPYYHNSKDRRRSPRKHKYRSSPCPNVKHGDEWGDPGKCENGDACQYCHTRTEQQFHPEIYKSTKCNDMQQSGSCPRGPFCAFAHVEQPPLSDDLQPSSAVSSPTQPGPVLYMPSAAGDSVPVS
Technique: RNA Bind-n-Seq
Molecule type: RNA
Sample: in vitro
Tested at: not given
Notes: RNA with constant flanks, human-mouse chimeric sites, ends assumed
Relative to: input RNA pool
Reading: higher = stronger binding
For `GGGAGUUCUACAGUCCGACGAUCGAGUCGAGCAAACUUGAAACAAUUCGUUAUCUUGCAGCCUCAGUGUUCACUUGCUUGUGGCAAUAGCUGGGGUUUUAUAGGUUCUGGAAGGAGAACUUUAAUGCUCACUGCCGCUGCUGCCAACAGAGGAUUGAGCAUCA`, the bound/input enrichment was 0.176 ratio.
`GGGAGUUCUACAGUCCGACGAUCUAAGUCCAUUUGUAAGCCUUCGCUCAUAAAGUUUUAAAUUCUGGACCAAUUGUGUUUGUUUCCUGAUUAUUGUAUCCAAUACUUUGCCUAGUAUGUAACUCACUCUUACUGAUAAUAAAACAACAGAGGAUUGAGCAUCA` gave a bound/input enrichment of 0.68 ratio.
For `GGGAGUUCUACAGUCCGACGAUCAAAGAGUGGAUAGAGUGUGCACACGGGAUCGGUUAUACCCGGGCGAAAAAGGAGUGCAAGAUAGAGUUCGAUGACUUCGUAGAGUGUUUGCUUCGGUACAAAACGAUGAGGCGAAUGCAUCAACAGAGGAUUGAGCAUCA`, the bound/input enrichment was 0.469 ratio.
For `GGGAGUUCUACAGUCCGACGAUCGGGGAGAAACCUUACGAGUGUGUGCAGUGUGGGAAAUCCUACAGUCAGAGCUCAAACCUUUUUAGACAUCAGAGACGACACAAUGCAGAAAAACUUUUGAAUGUUGUGAAAGUUUAAGAACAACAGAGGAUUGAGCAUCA`, the bound/input enrichment was 0.23 ratio.
For `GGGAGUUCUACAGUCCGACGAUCGUCAACAGCUGCCUCAACCCCAUCCUCUAUGCUUUCUUGGAUGAGAACUUCAAGGCCUGCUUUAGAAAGUUCUGCUGUGCAUCUGCCCUGCGCCGGGACGUGCAGGUGUCUGACCGCGUGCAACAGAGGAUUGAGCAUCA`, the bound/input enrichment was 0.337 ratio.
The bound/input enrichment of `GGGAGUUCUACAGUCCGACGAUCCCCCAAUACCAUUUGCAGGUCUGGAACUGCACUCUCUUUUUUAAAAAACAUGUAUACAUUUUAGGGCUGUAGAUUUAUUUUCCUGGUUUCUUUUCCAAUUGCUGACUUUUGAGCACAGAACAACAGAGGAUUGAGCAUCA` is reported as 2.43 ratio.
With `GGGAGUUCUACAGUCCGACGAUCUCCCUGUUGCUGAAUAAAUGGCUUGUAAGAACUGUCCUCCAAGCUGUAACCCAUGCUGUUAUUAUAGUUGCUGCAAAAUGUUCUUCCUGAUAUUGAUUUUAUUUGUUAACUGAAGGUCUCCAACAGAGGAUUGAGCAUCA` the bound/input enrichment was 0.405 ratio.
`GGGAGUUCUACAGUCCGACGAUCUUGAAAACUGAUUCAAGCAAGUUUGAAUAUCACAAUGUUAGCUUUCUAAUUCCAUAAAAGUACUUGGUACAGUUUCUUUAUAAUCUGACAUCACCCCAGCGCCAUUUGUAAAGAGCAACUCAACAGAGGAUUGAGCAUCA` gave a bound/input enrichment of 1.22 ratio.

Sample 5
Target: Interferon regulatory factor 7, full length, phosphomimetic (IRF7, Homo sapiens, UniProt Q92985, residues 1-503, S101K/S471D/S472D/S475D/S476D/S477D/S483D/S484D/S487D)
Technique: protein-binding microarray
Molecule type: double-stranded DNA, one strand shown
Sample: in vitro
Tested at: 250 nM
Notes: 60-bp whole probe
Added: salmon DNA 0.4 mg/ml
Relative to: random background probes
Reading: higher = stronger binding
Shared flanks, not repeated: GCCTAGCAC … GTCTTGATTCGCTTGACGCTGCTG
Target sequence (chain): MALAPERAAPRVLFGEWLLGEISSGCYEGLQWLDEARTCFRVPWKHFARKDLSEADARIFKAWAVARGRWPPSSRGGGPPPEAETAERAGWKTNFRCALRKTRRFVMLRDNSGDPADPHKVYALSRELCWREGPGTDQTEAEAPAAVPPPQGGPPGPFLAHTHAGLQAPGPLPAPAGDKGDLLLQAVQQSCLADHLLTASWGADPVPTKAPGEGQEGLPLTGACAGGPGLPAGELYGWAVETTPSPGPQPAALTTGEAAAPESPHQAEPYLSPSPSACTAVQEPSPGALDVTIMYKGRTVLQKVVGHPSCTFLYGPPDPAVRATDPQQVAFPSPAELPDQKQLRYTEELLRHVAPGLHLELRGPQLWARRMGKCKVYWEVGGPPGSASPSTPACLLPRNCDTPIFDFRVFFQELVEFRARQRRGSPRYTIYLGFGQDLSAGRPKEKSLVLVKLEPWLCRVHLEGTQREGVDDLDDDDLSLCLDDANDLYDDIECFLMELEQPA
`TTAGGTATCGGGACAGGGTTAGTGCTA` gave a log fluorescence of -0.119 z-score.
The log fluorescence of `TTAGGACTGAGGTATCGGTTAGTGCTA` is reported as 0.797 z-score.
`GACGGACTGGGGTATCGGGATGTGCTA` gave a log fluorescence of -0.497 z-score.
The log fluorescence of `GACGATATCAGTCTCGAGATGTGCTAG` is reported as 0.646 z-score.
For `TTAGATTTGGGGACTGGATTAGTGCTA`, the log fluorescence was -0.241 z-score.
The log fluorescence of `TCATTTTTTCTTTTATTACTGTGCTAG` is reported as 1.99 z-score.
`TCAAAAAATGATTGGTTACTGTGCTAG` gave a log fluorescence of 0.186 z-score.
`ACACTTTCCCCTTCCTAGTTGTGCTAG` has a log fluorescence of 2.67 z-score.
The log fluorescence of `TTAGGTTTCCTCTTCCTTTAGTGCTAG` is reported as 2.38 z-score.
The log fluorescence of `TTAGGTATCCGACTGCTTTAGTGCTAG` is reported as -0.383 z-score.
With `GACGAACAGAGTATCGAGACGTGCTAG` the log fluorescence was 0.00771 z-score.
`GACGATCTCAGGCTGGAGACGTGCTAG` gave a log fluorescence of -0.293 z-score.
The log fluorescence of `GACGACTTCGGGACTGGAGACGTGCTA` is reported as -0.717 z-score.
`GACGGTATAGACTTTCGGGACGTGCTA` has a log fluorescence of -0.487 z-score.

Single results of other studies
`LLRRLQDVANDRG` gave an enrichment score of -0.603 (Saccharomyces cerevisiae; peptide binding, yeast competitive growth sequencing; peptide, cyclin F-Cln2 fusion; library 2; direction not given).

For quick reference, copied from above (sample 3):
`E129K` — result for “relative binding score”: 38.1%.
`T120C`: “relative binding score” -4.82%.
For `S80G`, “relative binding score” read 3.49%.
`I133R`: “relative binding score” 24%.
Under “relative binding score”, `R113S` is recorded as 30.5%.
Under “relative binding score”, `L164R` is recorded as 37.5%.
`G148S`: “relative binding score” -9.54%.
Under “relative binding score”, `S87M` is recorded as 32%.
Under “relative binding score”, `E109T` is recorded as 18.8%.
`S117L` — result for “relative binding score”: -2.07%.
For `R163L`, “relative binding score” read 1.51%.
